Measured values gathered from unrelated publications.
Lines come from different studies, so protocols differ. ± marks the error that the study gave.
NR1H3 ligand-binding domain: Oxysterols receptor LXR-alpha, ligand-binding domain (NR1H3, Homo sapiens, UniProt Q13133)
GLP1R: Glucagon-like peptide 1 receptor (GLP1R, Homo sapiens, UniProt P43220)

| SMILES | target | assay | test system | conditions | EC50 [µM] |
| --- | --- | --- | --- | --- | --- |
| CN(C(=O)c1c(F)cccc1Cl)c1ccc(C(O)(C(F)(F)F)C(F)(F)F)cc1 | NR1H3 ligand-binding domain | agonist | – | concentration not given | 0.183 ± 0.006 |
| CC(C)CN(CC(C)C)C(=O)/C=C/C=C/c1ccc2c(c1)OCO2 | Gabra1/Gabrb2 (Rattus norvegicus, UniProt P62813+P63138) | GABA current potentiation, positive modulator, two-electrode voltage clamp | Xenopus oocytes expressing α1β2 | with: GABA EC3-7 | 19.8 ± 9.7 |
| CC[C@H](C)[C@H](NC(=O)[C@H](CO)NC(=O)[C@@H](Cc1cccnc1)NC(=O)[C@@H](Cc1ccc(Cl)cc1)NC(=O)[C@@H](Cc1ccc2ccccc2c1)NC(C)=O)C(=O)N[C@H](CCCCNC(C)C)C(=O)N[C@@H](CC(C)C)C(=O)N[C@@H](CCCCNC(C)C)C(=O)N1CCC[C@H]1C(=O)N[C@H](C)C(N)=O | Gonadotropin-releasing hormone receptor III (Gallus gallus, UniProt Q5EFE0) | inositol phosphate production, agonist | COS-7 cells transfected | 1 h | 1.51 ± 0.216 |
| C[C@H](NC(=O)[C@H](CC(N)=O)NC(=O)[C@H](Cc1c[nH]c2ccccc12)NC(=O)[C@H](CCCNC(=N)N)NC(=O)[C@@H](Cc1ccccc1)NC(=O)[C@H](Cc1c[nH]cn1)NC(=O)[C@H](CCCN=[N+]=[N-])NC(=O)[C@@H](N)Cc1ccc(O)cc1)C(=O)N[C@@H](Cc1ccccc1)C(=O)N[C@@H](CCCN=[N+]=[N-])C(=O)N[C@@H](Cc1ccc(O)cc1)C(N)=O | Melanocortin receptor 4 (Mus musculus, UniProt P56450) | agonist | – | – | 0.414 ± 0.054 |
| COc1ccc(CNc2nc(-c3ccc(OC)cc3)cc(C(F)(F)F)n2)cc1 | GLP1R | cAMP accumulation, positive allosteric modulator | HEK-293T overexpressing GLP1R | with: EC20 GLP-1 | 19 ± 22 |
| CN(C(=O)c1c(F)cc(F)cc1F)c1ccc(C(O)(C(F)(F)F)C(F)(F)F)cc1 | NR1H3 ligand-binding domain | agonist | – | concentration not given | 0.26 ± 0.01 |
| O=C1Nc2c(ccc(Cl)c2Cl)C1=NO | Calm1/Kcnn2, SK2-a isoform (Rattus norvegicus, UniProt P0DP29+P70604, A477I) | potentiator, inside-out patch | rat | with: 200 nM Ca2+ | 2.21 ± 0.39 |
| COc1ccc(CCNc2nc(-c3ccccc3)cc(C(F)(F)F)n2)cc1OC | GLP1R | cAMP accumulation, positive allosteric modulator | HEK-293T overexpressing GLP1R | with: EC20 GLP-1 | 18 ± 23 |
| O=C(CNC(=O)c1ccc(O)c(-c2ccc(Cl)c(Cl)c2)c1)NCCc1ccc(Cl)c(Cl)c1 | GPR132 (Homo sapiens, UniProt Q9UNW8) | β-arrestin recruitment, agonist | – | – | 0.0501 |
| NCCCc1ccccc1 | CFTR (Homo sapiens, UniProt P13569, K1250A) | locked-open current enhancement, inside-out patch clamp | – | K1250A mutant, 60 mV | 10000 ± 3000 |
| CSCC[C@H](NC(=O)[C@H](Cc1ccc(O)cc1)NC(=O)[C@@H](NC(=O)[C@H](CCCNC(=N)N)NC(=O)[C@@H](N)CC(=O)O)C(C)C)C(=O)N[C@@H](Cc1c[nH]cn1)C(=O)N1CCC[C@H]1C(=O)N[C@@H](CC(C)C)C(=O)O | AGTR1 (Homo sapiens, UniProt P30556) | β-arrestin recruitment, agonist | – | – | 0.0006 |
| COc1ccc(-c2cc(C(F)(F)F)nc(S(=O)(=O)CCCC(=O)Nc3ccc(F)c(Cl)c3)n2)cc1OC | GLP1R | cAMP, agonist | – | – | 4.4 |
| Cc1ccc(Oc2nc3cc(-c4ccc5c(ccn5C)c4)c(Cl)cc3[nH]2)cc1C(=O)O | PRKAB2/PRKAA1, with gamma1 subunit (Homo sapiens, UniProt O43741+Q13131) | allosteric activator | – | AMPK complex α1β2γ1, with: SAMS peptide substrate | 1.1 |
| COc1ccc(-c2cc(C(F)(F)F)nc(S(=O)(=O)CCCC(=O)Nc3ccc(F)cc3F)n2)cc1OC | GLP1R | cAMP accumulation, positive allosteric modulator | HEK-293T overexpressing GLP1R | with: EC20 GLP-1 | 12 ± 1 |
| CC[C@H](C)[C@H](NC(=O)[C@H](CO)NC(=O)[C@H](Cc1ccc(O)cc1)NC(=O)[C@H](CC(=O)O)NC(=O)[C@H](CO)NC(=O)[C@@H](NC(=O)[C@H](Cc1ccccc1)NC(=O)[C@@H](NC(=O)CNC(=O)[C@@H]1CCCN1C(=O)[C@H](C)NC(=O)[C@@H](N)Cc1ccc(O)cc1)[C@@H](C)O)[C@@H](C)CC)C(=O)N[C@@H](C)C(=O)N[C@@H](CCSC)C(=O)N[C@@H](CC(=O)O)C(=O)N[C@@H](CCCCN)C(=O)N[C@H](C(=O)N[C@@H](Cc1c[nH]cn1)C(=O)N[C@@H](CCC(N)=O)C(=O)N[C@@H](CCC(N)=O)C(=O)N[C@@H](CC(=O)O)C(=O)N[C@@H](Cc1ccccc1)C(=O)N[C@H](C(=O)N[C@@H](CC(N)=O)C(=O)N[C@@H](Cc1c[nH]c2ccccc12)C(=O)N[C@@H](CC(C)C)C(=O)N[C@@H](CC(C)C)C(=O)N[C@@H](C)C(=O)N[C@@H](CCC(N)=O)C(=O)N[C@@H](CCCCN)C(=O)NCC(=O)N[C@@H](CCCCN)C(=O)N[C@@H](CCCCN)C(=O)N[C@@H](CC(N)=O)C(=O)N[C@@H](CC(=O)O)C(=O)N[C@@H](Cc1c[nH]c2ccccc12)C(=O)N[C@@H](CCCCN)C(=O)N[C@@H](Cc1c[nH]cn1)C(=O)N[C@@H](CC(N)=O)C(=O)N[C@H](C(=O)N[C@H](C(=O)N[C@@H](CCC(N)=O)C(=O)O)[C@@H](C)O)[C@@H](C)CC)C(C)C)[C@@H](C)CC | GIPR (Homo sapiens, UniProt P48546) | cAMP, agonist | – | – | 0.0047 |
| COc1cc(Cl)ccc1NC(=O)CCCS(=O)(=O)c1nc(-c2ccc(OC)c(OC)c2)cc(C(F)(F)F)n1 | GLP1R | cAMP accumulation, positive allosteric modulator | HEK-293T overexpressing GLP1R | with: EC20 GLP-1 | 28 ± 18 |
| CN(C(=O)C1CC1)c1ccc(C(O)(C(F)(F)F)C(F)(F)F)cc1 | NR1H3 ligand-binding domain | agonist | – | concentration not given | > 10 |
| O=C(O)/C=C/c1cccc(NC(=O)c2cc(-c3ccccc3)ccc2F)c1 | PTGER4 (Homo sapiens, UniProt P35408) | calcium signal, agonist, fluorescence | – | – | > 10 |
| CC[C@H](C)[C@H](NC(=O)[C@H](CCCCN)NC(=O)[C@H](CCCNC(=N)N)NC(=O)[C@H](CCCNC(=N)N)NC(=O)[C@H](Cc1c[nH]c2ccccc12)NC(=O)[C@H](CC(C)C)NC(=O)[C@@H](N)CCSC)C(=O)NCC(=O)N1CCC[C@H]1C(=O)N[C@@H](CCC(N)=O)C(=O)N[C@@H](CCSC)C(=O)N[C@H](C(=O)N[C@@H](CC(C)C)C(=O)N[C@@H](CO)C(=O)N[C@@H](Cc1c[nH]cn1)C(=O)N[C@@H](C)C(=O)N[C@@H](C)C(=O)NCC(=O)O)[C@@H](C)O | N-formyl peptide receptor 3 (Homo sapiens, UniProt P25089) | – | – | – | > 1 |
| CC(C)CCC(C=O)C(C)C (stereo not drawn) | TRPV3 (Homo sapiens, UniProt Q8NET8) | ion current, agonist, patch clamp | – | – | 6540 |
| Cc1cc(C)c2sc(NC(=O)C3CCN(S(=O)(=O)c4ccc(F)cc4)CC3)nc2c1 | Napepld (Mus musculus, UniProt Q8BH82) | flame-NAPE competition | – | with: bithionol 3 µM pretreatment | 0.38 |
| N#C/C(=C\c1cccc(-c2ccncc2)c1)C(N)=O | RPS6KA5 (Homo sapiens, UniProt O75582) | phosphorylation in cells, inhibitor, western blot | – | – | < 5 |
| COc1ccc(-c2cc(C(F)(F)F)nc(NCc3ccc(Cl)cc3)n2)cc1OC | GLP1R | cAMP accumulation, positive allosteric modulator | HEK-293T overexpressing GLP1R | with: EC20 GLP-1 | 2.4 ± 0.9 |
| COc1ccc(F)cc1CC1(NC(=O)c2cc(N3C[C@@H](C)O[C@H](C)C3)ccn2)CC1 | SLC6A8 (Homo sapiens, UniProt P48029, R278C) | creatine transport rescue | U-2 OS R278C knock-in | 24 h | ~1 |
| COc1cc(-c2cnc3nc2NCCCNS(=O)(=O)c2cccc(c2)N3)ccc1F | FGFR1 (Homo sapiens, UniProt P11362) | target engagement in cells, BRET | – | – | 3.1 |
| CN(C(=O)c1cccc(Cl)c1Cl)c1ccc(C(O)(C(F)(F)F)C(F)(F)F)cc1 | NR1H3 ligand-binding domain | agonist | – | concentration not given | 1.31 ± 0.03 |
| C[C@@H]1CN(c2ccnc(C(=O)N[C@H]3C[C@@H]3c3ccccc3)c2)CC[C@@H]1O | SLC6A8 (Homo sapiens, UniProt P48029, P544L) | surface localization, corrector, PathHunter | U-2 OS expressing SLC6A8 | – | 0.1 |

Some of these lines once more:
| SMILES | target | assay | test system | conditions | EC50 [µM] |
| --- | --- | --- | --- | --- | --- |
| CN(C(=O)c1c(F)cc(F)cc1F)c1ccc(C(O)(C(F)(F)F)C(F)(F)F)cc1 | NR1H3 ligand-binding domain | agonist | – | concentration not given | 0.26 ± 0.01 |
| O=C1Nc2c(ccc(Cl)c2Cl)C1=NO | Calm1/Kcnn2, SK2-a isoform (Rattus norvegicus, UniProt P0DP29+P70604, A477I) | potentiator, inside-out patch | rat | with: 200 nM Ca2+ | 2.21 ± 0.39 |
| COc1ccc(CCNc2nc(-c3ccccc3)cc(C(F)(F)F)n2)cc1OC | GLP1R | cAMP accumulation, positive allosteric modulator | HEK-293T overexpressing GLP1R | with: EC20 GLP-1 | 18 ± 23 |
